# Experimental data pooled from the literature.
# Parts stem from different laboratories: compare values within a part only.
# Sequence of UniProt O15294 (whole entry, looked up): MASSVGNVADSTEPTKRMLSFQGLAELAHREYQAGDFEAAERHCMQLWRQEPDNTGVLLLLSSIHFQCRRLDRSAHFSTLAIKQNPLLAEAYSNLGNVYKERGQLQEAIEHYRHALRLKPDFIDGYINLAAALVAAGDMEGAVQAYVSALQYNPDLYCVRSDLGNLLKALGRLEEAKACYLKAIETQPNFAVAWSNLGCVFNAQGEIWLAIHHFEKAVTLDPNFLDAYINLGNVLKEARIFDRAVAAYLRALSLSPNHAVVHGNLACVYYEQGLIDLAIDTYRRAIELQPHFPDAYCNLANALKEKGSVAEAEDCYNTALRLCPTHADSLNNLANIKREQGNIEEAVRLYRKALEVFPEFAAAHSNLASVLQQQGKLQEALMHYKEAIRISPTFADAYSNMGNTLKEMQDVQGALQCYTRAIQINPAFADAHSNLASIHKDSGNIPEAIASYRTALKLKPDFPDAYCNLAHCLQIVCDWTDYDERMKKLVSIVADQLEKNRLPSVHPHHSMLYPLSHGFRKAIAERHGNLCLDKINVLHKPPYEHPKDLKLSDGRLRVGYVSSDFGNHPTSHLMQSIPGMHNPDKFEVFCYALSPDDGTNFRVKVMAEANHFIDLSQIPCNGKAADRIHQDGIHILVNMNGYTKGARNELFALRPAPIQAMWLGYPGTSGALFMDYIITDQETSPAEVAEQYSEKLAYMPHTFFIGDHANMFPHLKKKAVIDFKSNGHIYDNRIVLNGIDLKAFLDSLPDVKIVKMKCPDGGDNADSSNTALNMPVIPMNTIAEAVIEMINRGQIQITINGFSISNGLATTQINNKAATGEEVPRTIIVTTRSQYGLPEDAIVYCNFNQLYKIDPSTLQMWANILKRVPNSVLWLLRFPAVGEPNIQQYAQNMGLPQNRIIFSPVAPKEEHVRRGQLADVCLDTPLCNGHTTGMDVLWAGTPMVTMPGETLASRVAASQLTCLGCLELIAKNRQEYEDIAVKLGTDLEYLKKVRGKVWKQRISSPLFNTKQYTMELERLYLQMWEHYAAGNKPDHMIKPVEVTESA

# Set 1 — method: RNA Bind-n-Seq; molecule type: RNA; medium: in vitro; concentration: not given; baseline: input RNA pool; reading: higher = stronger binding
# Target: RING finger protein unkempt homolog, zinc fingers 1-6, GST-SBP tag (UNK, Homo sapiens, UniProt Q9C0B0, residues 30-357)
# Sequence of UniProt Q9C0B0 (30-357, looked up): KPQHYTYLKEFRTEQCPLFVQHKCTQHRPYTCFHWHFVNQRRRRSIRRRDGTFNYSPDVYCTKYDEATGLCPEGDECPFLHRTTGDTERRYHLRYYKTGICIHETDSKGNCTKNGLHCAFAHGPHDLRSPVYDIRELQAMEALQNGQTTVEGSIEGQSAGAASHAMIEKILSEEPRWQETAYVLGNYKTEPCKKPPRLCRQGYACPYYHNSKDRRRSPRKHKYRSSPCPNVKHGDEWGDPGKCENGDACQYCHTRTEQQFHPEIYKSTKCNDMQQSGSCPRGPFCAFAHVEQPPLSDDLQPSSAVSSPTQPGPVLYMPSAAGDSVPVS
# Setting: RNA with constant flanks, human-mouse chimeric sites, ends assumed
# Shared flanks, not repeated: GGGAGUUCUACAGUCCGACGAUC … CAACAGAGGAUUGAGCAUCA
Strand,bound/input enrichment
CUCAUGGCUGCAGAAACAGGAAGUGGAAAAACUGGUGCUUUUAGUAUUCCCGUUAUCCAGAUAGUGUAUGAAACUCUGAAAGACCAACAGGAAGGAAAAAAAGGAAAAACAACUAUUAAA,0.85 ratio
AAAGCCCAAGUAUUUUGAAAAAAUUCAAACAGAUUUGACAAGGGUAGCCAGCUUGGAGUCUAGCAAUUUGCCAAUGUGUUUACCAAUCUGGGGGCUUGUUUUUCUUUUCUUCUUUCAAAU,0.563 ratio
UUACCCGAGAACGAGGAUGAGCUGGAGAGCACCAAUAGGCGCUACACCAAGAGGGACUGCAGCACUUUCCUCAGAACUAGUGAGACGGGCAUCGUGGAUCAGGUUAUGGUCACUCUCAAC,0.143 ratio
UACUACUAUGAUGGUGAUAUUGGCAAUUAUUAUUAUGGCCAGGGUCAUCCCAUGAAGCCUCAUAGAAUCCGGAUGACCCAUAACUUGCUGUUAAAUUAUGGUUUAUACCGAAAAAUGGAA,0.156 ratio
UCUGGUCACACUCGUGUGUAUGGUGUUUGCUUUGUGGACACUUCACUGGGCAAGUUUUUCAUCGGCCAGUUUUCAGAUGACCGCCACUGUUCCAGAUUUAGGACGCUAGUGGCUCACUAU,0.209 ratio
UAUAAUAAUCAUGAAAUUCGUUCUGGAAAACAUAUUGGUGUCUGCAUCUCAGUUGCCAACAAUAGGCUUUUUGUGGGCUCGAUUCCUAAGAGUAAAACCAAGGAGCAGAUUCUUGAGGAA,2.33 ratio
GCAGGAUCUUCUAAGUACCAGUGGGACAUUAUGAAAUCCCUUGGGCUCUCUGAUGACGACAUAGUGAAGUUUUCUGAAGCAGAACAUUGGCUUGAUUAUUUCCCACCACUGGCCGUUCAG,0.283 ratio
GCCACCAGAUCCCAGAAACAUGACUCUUGCUGCCUACAAAGAGAAGAUGAAGGAGCUCCCGCUGGUGUCCUUGUUCUGCUCCUGCUUCCUGGCCGAUCCCCUGAAUAAGUCGUCCUACAA,0.299 ratio

# Set 2 — method: RNAcompete; molecule type: RNA; medium: in vitro; concentration: 20 nM; setting: 7-mer, probes averaged, single round; baseline: mean of 7-mers; reading: higher = stronger binding
# Target: PABPC1L2, full length, GST fusion (mouse, UniProt A0ABA7IW68)
# Residues (chain): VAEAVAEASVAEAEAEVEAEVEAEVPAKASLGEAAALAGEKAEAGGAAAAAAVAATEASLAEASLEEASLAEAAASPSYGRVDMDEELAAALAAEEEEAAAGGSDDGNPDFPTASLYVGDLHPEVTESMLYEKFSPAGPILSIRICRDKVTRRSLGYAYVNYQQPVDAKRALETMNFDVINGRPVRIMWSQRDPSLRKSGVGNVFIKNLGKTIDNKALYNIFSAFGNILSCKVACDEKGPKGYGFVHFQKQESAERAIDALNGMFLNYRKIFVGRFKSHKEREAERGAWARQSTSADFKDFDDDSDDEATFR
Strand,7-mer Z-score
GUACAUA,0.0587
AAGGUCG,0.0678
ACAGAUG,0.0768
UCACAGU,-0.255
CCUCGAU,-0.226
CAUCUCA,-0.238
UUGCCCA,-0.438
AAGCGGU,0.278

# Other studies, line by line
Molecule,target or system,test,test system,setting,how to read,quantity,value
"DLAT (Homo sapiens, UniProt P10515)","TTN (Homo sapiens, UniProt Q8WZ42)",cross-linking MS,,hits only,,interaction screen,cross-linked
HYPHHDYLWHPITNV,"UDP-N-acetylglucosamine--peptide N-acetylglucosaminyltransferase 110 kDa subunit (OGT, Homo sapiens, UniProt O15294)","binding, phage display NGS",peptide,,baseline: input library,minimum log2 enrichment ratio,1.69
